Experimental data gathered from unrelated publications.
Numbered parts are unrelated; each lists some results of a single study.

Study 1
Target: Interferon regulatory factor 7, full length, phosphomimetic (IRF7, Homo sapiens, UniProt Q92985, residues 1-503, S471D/S472D/S475D/S476D/S477D/S483D/S484D/S487D)
Chain of UniProt Q92985 (whole entry, unmodified, looked up): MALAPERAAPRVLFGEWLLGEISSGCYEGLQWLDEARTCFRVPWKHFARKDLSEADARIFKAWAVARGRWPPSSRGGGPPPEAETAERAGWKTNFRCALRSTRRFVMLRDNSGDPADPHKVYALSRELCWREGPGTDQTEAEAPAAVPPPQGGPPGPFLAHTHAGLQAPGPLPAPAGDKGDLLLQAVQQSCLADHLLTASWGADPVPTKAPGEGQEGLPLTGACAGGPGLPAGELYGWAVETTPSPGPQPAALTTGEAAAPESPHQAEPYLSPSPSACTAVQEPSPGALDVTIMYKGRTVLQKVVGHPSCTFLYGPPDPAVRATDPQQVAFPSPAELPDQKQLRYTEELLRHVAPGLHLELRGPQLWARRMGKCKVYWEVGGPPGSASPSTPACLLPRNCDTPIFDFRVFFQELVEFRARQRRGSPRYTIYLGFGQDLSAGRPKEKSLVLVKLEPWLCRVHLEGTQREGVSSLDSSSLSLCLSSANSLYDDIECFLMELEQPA
Method: protein-binding microarray
Form: double-stranded DNA, one strand shown
Sample: in vitro
Tested at: 2200 nM top
Setting: 60-bp whole probe
Added: salmon DNA 0.4 mg/ml
Baseline: random background probes
Reading: higher = stronger binding
| Strand | fitted relative affinity [z-score] |
| --- | --- |
| GCCTAGCACGACGGTTTCGTGACTGGGGACGTGCTAGTCTTGATTCGCTTGACGCTGCTG | 2.37 |
| GCCTAGCACTCACTCTTCTTGCATCTGACTGTGCTAGTCTTGATTCGCTTGACGCTGCTG | 1.74 |
| GCCTAGCACAAGACTCTCTTGTCTGGATGTGTGCTAGTCTTGATTCGCTTGACGCTGCTG | 0.134 |
| GCCTAGCACGACGGTATCCTACTGCCGACGTGCTAGGTCTTGATTCGCTTGACGCTGCTG | 0.506 |

Study 2
Target: Histone acetyltransferase KAT6A, winged helix 1, GST fusion (KAT6A, Homo sapiens, UniProt Q92794, residues 1-85)
Method: protein binding microarray
Form: double-stranded DNA, one strand shown
Sample: in vitro
Tested at: not given
Setting: 8-mer, flanks averaged, mean of 2 arrays, mostly near background
Baseline: not given
Reading: higher = stronger binding
Construct (chain): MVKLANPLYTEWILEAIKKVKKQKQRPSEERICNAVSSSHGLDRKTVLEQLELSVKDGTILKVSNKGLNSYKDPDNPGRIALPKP
| Strand | E-score |
| --- | --- |
| ACGATTCT | -0.114 |
| ACCCCATA | -0.0879 |
| AACATTGG | -0.275 |
| ACGGTGCC | 0.35 |
| GCAATTAA | 0.0524 |

Study 3
Target: RING finger protein unkempt homolog, zinc fingers 1-6, GST-SBP tag (UNK, Homo sapiens, UniProt Q9C0B0, residues 30-357)
Chain of UniProt Q9C0B0 (30-357, looked up): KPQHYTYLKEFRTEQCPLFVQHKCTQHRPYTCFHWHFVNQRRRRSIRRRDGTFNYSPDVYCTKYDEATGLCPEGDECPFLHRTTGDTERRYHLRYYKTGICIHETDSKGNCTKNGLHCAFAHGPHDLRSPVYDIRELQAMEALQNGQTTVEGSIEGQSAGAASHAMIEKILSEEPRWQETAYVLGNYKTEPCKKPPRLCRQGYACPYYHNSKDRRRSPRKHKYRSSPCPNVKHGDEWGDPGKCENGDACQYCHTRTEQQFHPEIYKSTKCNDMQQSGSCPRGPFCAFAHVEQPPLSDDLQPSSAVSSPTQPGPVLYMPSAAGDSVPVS
Method: RNA Bind-n-Seq
Form: RNA
Sample: in vitro
Tested at: not given
Setting: RNA with constant flanks, human-mouse chimeric sites, ends assumed
Baseline: input RNA pool
Reading: higher = stronger binding
| Strand | bound/input enrichment [ratio] |
| --- | --- |
| GGGAGUUCUACAGUCCGACGAUCUGUAACUUAUCUGUAAAAGGUUCCCCCCCCUACUGUCCAAAAAAUAUGCAUGUAUAGUAAUUAGGACUUCAUUCCUCCAUGUUUUCUUCCCUUAUCUUACUGUCAUUGUCCUAAAACCUUCAACAGAGGAUUGAGCAUCA | 1.12 |
| GGGAGUUCUACAGUCCGACGAUCUUGAAAACUGAUUCAAGUAAGUUUGAGUAUCACAAUGUUAGCUUUCUAAUUCCACACAGAUAGUUUUUUUUUACAGUUUAUAAUCUGACAUCACCCCAGCGCCAUUUGUAAAGAGCAACUCAACAGAGGAUUGAGCAUCA | 16.6 |
| GGGAGUUCUACAGUCCGACGAUCGGGACUGAUUCAUCCCAAGGACAGGCCACCCCAUUUGAUGCCUGGACUGACGACAGUAUGUUAGGGCCUAGUCAAAAUGUUGAAGCUGAGUCAAUUCAGGAUGCCAUGAGUAUGGAAGAGCAACAGAGGAUUGAGCAUCA | 0.46 |
| GGGAGUUCUACAGUCCGACGAUCCUCAGAGAUGUGGCAUAUCAGUAUGUGAAAAAGGGGUCUCGUAUAUUUGUGGAAGGGAAAGUGGACUAUGGCGAGUACAUGGAUAAAAACAAUGUGAGGCGACAAGCAACAACAAUCAUACAACAGAGGAUUGAGCAUCA | 0.352 |

Other studies, line by line
| Substance | target | test | system | conditions | how to read | endpoint | result |
| --- | --- | --- | --- | --- | --- | --- | --- |
| PhoQ, residues 284 288 289 292 302 303 SSTLSG | PhoP, residues 12 14 15 18 19 VQGLL (Escherichia coli, UniProt P23836) | Sort-seq, measured: YFP reporter | E. coli | PhoQ-PhoP variant library, added: 10 µM Mg2+ | baseline: high Mg2+ state, higher = stronger signaling | fold induction | 14.4 |

Repeated from above (study 2):
| Strand | E-score |
| --- | --- |
| GCAATTAA | 0.0524 |
